{"data": "Published values collected from several papers", "note": "Each numbered part is a random draw from the data of one study; scales do not carry over between parts. “And” joins repeats or separate records; there may be more than shown.", "UniProt P08581, sequence (whole entry, looked up)": "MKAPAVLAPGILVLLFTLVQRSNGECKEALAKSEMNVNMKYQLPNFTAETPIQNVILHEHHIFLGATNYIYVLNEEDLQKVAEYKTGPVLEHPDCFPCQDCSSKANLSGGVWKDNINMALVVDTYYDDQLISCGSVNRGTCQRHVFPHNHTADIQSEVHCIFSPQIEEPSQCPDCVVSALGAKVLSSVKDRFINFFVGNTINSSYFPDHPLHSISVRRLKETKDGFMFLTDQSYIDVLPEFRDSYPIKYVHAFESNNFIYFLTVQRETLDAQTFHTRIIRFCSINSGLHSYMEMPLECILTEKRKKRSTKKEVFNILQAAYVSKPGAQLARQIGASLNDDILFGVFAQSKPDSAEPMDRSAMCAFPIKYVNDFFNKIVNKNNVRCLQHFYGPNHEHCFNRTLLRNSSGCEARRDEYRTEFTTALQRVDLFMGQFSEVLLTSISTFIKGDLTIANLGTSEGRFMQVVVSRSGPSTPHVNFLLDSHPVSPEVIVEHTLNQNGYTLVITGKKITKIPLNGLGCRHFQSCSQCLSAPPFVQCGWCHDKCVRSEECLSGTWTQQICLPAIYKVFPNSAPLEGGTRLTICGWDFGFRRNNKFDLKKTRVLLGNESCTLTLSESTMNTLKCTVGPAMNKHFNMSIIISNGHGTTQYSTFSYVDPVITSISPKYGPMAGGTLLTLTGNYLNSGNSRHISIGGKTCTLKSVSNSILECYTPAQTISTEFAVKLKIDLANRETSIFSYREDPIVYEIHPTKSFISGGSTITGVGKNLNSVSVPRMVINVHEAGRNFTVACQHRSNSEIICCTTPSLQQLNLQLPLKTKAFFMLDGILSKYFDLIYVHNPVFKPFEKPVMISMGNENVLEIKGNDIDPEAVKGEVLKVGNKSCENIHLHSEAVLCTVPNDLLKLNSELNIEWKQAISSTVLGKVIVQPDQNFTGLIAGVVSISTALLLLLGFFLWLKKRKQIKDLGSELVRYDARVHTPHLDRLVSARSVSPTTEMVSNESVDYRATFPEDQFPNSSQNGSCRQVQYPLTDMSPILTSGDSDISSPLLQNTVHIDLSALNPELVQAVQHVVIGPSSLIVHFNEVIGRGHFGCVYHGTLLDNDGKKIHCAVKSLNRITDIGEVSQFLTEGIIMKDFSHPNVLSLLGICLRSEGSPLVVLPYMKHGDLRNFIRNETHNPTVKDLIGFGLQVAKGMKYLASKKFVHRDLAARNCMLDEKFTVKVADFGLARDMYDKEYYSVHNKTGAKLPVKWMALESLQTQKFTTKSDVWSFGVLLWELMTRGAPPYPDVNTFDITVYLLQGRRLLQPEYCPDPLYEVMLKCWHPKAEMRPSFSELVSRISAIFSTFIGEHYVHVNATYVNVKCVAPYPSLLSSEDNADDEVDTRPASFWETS", "UniProt Q13237, sequence (whole entry, looked up)": "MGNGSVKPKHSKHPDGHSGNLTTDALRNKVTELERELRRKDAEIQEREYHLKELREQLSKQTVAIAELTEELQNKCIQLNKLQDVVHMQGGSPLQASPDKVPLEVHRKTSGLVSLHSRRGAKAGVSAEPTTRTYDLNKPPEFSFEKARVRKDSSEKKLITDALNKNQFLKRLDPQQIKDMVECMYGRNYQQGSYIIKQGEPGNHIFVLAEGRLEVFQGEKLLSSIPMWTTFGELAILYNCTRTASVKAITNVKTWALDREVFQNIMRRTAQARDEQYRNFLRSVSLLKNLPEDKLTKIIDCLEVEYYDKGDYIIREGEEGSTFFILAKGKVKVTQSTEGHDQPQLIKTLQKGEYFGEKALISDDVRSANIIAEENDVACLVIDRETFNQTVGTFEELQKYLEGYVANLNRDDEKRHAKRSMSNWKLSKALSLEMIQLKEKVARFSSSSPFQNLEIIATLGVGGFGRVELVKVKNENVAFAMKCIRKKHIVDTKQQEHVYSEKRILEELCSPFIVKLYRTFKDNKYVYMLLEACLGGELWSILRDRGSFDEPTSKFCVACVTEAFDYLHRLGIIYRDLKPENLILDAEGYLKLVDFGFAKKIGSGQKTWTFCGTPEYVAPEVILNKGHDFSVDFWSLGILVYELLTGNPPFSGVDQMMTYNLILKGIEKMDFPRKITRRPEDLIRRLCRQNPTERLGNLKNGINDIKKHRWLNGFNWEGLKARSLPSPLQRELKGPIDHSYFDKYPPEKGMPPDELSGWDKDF", "UniProt P10721, sequence (whole entry, unmodified, looked up)": "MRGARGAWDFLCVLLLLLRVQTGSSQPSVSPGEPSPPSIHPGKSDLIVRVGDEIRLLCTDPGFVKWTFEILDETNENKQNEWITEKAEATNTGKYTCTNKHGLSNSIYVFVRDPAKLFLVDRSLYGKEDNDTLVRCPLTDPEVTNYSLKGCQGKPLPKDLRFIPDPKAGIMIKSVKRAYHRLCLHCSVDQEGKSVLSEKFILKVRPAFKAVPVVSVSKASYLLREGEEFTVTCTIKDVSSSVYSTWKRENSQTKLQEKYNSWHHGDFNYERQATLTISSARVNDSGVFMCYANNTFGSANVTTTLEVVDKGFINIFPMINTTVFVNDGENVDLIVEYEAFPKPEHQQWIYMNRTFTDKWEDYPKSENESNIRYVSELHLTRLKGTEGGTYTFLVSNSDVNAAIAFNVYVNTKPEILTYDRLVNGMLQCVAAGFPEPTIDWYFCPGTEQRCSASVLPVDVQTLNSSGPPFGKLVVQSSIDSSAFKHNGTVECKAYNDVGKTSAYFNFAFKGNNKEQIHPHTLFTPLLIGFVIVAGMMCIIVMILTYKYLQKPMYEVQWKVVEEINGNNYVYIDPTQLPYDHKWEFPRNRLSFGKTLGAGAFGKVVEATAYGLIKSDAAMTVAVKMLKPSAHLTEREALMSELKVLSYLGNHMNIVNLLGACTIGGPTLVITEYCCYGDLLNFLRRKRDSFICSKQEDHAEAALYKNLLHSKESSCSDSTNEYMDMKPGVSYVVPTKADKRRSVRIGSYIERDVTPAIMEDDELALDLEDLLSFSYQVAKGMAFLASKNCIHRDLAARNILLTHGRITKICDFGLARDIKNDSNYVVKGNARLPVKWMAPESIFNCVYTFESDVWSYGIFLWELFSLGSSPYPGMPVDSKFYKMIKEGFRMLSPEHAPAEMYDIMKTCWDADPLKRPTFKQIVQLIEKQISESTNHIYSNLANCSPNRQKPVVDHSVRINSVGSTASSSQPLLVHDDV", "UniProt P28482, sequence (whole entry, looked up)": "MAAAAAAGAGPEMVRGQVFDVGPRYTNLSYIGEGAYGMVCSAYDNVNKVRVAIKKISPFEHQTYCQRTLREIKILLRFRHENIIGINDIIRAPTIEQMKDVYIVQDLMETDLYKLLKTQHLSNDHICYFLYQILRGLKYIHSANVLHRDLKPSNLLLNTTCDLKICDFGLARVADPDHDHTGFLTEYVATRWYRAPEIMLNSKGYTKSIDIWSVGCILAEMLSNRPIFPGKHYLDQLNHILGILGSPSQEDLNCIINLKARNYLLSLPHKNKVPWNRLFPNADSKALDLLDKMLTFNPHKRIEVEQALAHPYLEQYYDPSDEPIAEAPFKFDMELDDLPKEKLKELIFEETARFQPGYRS", "UniProt Q96L34, sequence (whole entry, looked up)": "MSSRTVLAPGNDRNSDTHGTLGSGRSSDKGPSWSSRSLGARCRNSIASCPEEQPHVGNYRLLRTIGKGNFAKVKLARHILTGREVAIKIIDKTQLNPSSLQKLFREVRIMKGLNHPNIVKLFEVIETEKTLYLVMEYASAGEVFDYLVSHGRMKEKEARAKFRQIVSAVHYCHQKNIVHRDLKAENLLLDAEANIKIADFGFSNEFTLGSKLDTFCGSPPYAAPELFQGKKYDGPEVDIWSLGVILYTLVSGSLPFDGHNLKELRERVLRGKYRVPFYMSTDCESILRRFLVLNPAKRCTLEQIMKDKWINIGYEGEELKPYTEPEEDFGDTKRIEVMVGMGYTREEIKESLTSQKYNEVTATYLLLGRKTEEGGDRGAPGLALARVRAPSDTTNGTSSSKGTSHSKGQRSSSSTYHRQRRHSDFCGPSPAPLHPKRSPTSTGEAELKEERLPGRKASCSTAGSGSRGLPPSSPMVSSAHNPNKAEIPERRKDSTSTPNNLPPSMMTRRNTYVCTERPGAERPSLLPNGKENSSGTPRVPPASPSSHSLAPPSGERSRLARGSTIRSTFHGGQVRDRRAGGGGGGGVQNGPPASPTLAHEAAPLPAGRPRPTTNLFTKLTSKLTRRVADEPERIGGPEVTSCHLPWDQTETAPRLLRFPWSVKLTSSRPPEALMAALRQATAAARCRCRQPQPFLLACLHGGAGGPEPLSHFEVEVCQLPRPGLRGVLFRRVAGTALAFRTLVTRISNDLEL", "UniProt P51817, sequence (whole entry, looked up)": "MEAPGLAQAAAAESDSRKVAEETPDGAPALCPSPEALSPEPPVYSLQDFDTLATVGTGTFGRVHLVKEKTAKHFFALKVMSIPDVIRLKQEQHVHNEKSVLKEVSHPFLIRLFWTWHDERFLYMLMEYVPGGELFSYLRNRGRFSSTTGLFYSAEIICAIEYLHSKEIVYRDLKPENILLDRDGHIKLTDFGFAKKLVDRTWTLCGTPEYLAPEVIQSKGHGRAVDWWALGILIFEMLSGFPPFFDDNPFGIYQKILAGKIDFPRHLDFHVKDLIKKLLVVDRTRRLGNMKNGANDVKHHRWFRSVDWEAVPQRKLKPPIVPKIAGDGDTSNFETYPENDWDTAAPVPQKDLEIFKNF"}
{"data": "Series 1", "Structure (SMILES)": "Cc1cc2ncc(-c3ccccc3)nc2cc1C", "read-out": "enzyme activity", "action": "inhibitor", "tested at": "0.5 µM", "relative to": "control"}
{"target": "GRK4 (Homo sapiens, UniProt P32298)", "remaining activity [%]": 94.8}
{"target": "CAMK4 (Homo sapiens, UniProt Q16566)", "remaining activity [%]": 98.3}
{"target": "MAPK1 (Homo sapiens, UniProt P28482)", "remaining activity [%]": 88}
{"target": "Cyclin-dependent kinase 1, with cyclin A (CDK1, Homo sapiens, UniProt P06493)", "remaining activity [%]": 94.4}
{"target": "MAPK14 (Homo sapiens, UniProt Q16539)", "remaining activity [%]": 103}
{"target": "PNCK (Homo sapiens, UniProt Q6P2M8)", "remaining activity [%]": 96.3}
{"target": "PAK3 (Homo sapiens, UniProt O75914)", "remaining activity [%]": 96.2}
{"target": "MET (Homo sapiens, UniProt P08581)", "remaining activity [%]": 95.1}
{"target": "KDR (Homo sapiens, UniProt P35968)", "remaining activity [%]": 99.1}
{"target": "DDR2 (Homo sapiens, UniProt Q16832)", "remaining activity [%]": 95.7}
{"target": "Cyclin-dependent kinase 9, with cyclin K (CDK9, Homo sapiens, UniProt P50750)", "remaining activity [%]": 101}
{"target": "NEK3 (Homo sapiens, UniProt P51956)", "remaining activity [%]": 93.7}
{"target": "MARK4 (Homo sapiens, UniProt Q96L34)", "remaining activity [%]": 105}
{"target": "CLK3 (Homo sapiens, UniProt P49761)", "remaining activity [%]": 92.8}
{"target": "MARK2 (Homo sapiens, UniProt Q7KZI7)", "remaining activity [%]": 84.5}
{"data": "Series 2", "SMILES": "O=C(N1CCS(=O)(=O)CC1)N1C[C@H](c2ccc(OC(F)(F)F)cc2)C[C@H](c2nc(C3CC3)no2)C1", "read-out": "cell-free assay", "method": "competition with immobilised ligand", "tested at": "1 µM"}
{"target": "PRKX (Homo sapiens, UniProt P51817)", "remaining binding": "100%"}
{"target": "Tyrosine-protein kinase JAK3, JH1 (JAK3, Homo sapiens, UniProt P52333)", "remaining binding": "100%"}
{"target": "ABL2 (Homo sapiens, UniProt P42684)", "remaining binding": "100%"}
{"target": "NUAK1 (Homo sapiens, UniProt O60285)", "remaining binding": "97%"}
{"target": "KIT (Homo sapiens, UniProt P10721, T670I/V559D)", "remaining binding": "100%"}
{"target": "PRKG2 (Homo sapiens, UniProt Q13237)", "remaining binding": "100%"}
{"target": "PIP5K1C (Homo sapiens, UniProt O60331)", "remaining binding": "100%"}
{"data": "Series 3", "target": "Calcium/calmodulin-dependent protein kinase type II subunit alpha (CAMK2A, Homo sapiens, UniProt Q9UQM7)", "read-out": "enzyme activity", "action": "inhibitor", "tested at": "10 µM", "UniProt Q9UQM7, sequence (whole entry, looked up)": "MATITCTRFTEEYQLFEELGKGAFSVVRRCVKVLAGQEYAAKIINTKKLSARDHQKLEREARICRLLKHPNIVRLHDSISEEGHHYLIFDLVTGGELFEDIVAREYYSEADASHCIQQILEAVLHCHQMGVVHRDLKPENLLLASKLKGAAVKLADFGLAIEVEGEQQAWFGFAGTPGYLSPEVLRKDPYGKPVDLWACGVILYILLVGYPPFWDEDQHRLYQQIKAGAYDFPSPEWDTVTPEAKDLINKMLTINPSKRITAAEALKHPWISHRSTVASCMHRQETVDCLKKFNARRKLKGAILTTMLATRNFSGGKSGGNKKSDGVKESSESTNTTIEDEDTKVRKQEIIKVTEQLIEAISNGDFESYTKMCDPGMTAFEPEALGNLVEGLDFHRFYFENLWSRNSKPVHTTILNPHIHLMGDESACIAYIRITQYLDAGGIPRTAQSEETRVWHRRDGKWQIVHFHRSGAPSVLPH"}
{"Compound": "CC(C)=CCc1c(O)cc(O)c2c1O[C@H](c1ccccc1)CC2=O", "inhibition": "29%"}
{"Compound": "C=CCSC", "inhibition": "12%"}
{"Compound": "CC(CN(C)C)CN1c2ccccc2Sc2ccccc21 (centres unmarked)", "inhibition": "3%"}
{"Compound": "CC(C)c1cc2c(c(O)c1O)[C@@]13CCCC(C)(C)[C@@H]1[C@H](OC3=O)[C@H]2O", "inhibition": "-17%"}
{"Compound": "N[C@@H](CCC[C@H](N)C(=O)O)C(=O)O", "inhibition": "-16%"}
{"Compound": "Oc1ccc(OC2CCCCO2)cc1 (centres unmarked)", "inhibition": "-41%"}
{"data": "Series 4", "cell line": "mouse MPNST tumor cells", "method": "high-content nuclear imaging", "refers to": "cell number", "tested at": "10 µM", "time": "12 h", "notes": "mean of 2 replicates", "relative to": "plate mean", "direction": "higher = more cells"}
{"Compound": "COc1cc(OC)c(C(=O)CCCN2CCCC2)c(OC)c1", "nuclei count": "-0.382 z-score"}
{"Compound": "CCN(CC)C(=O)/C(C#N)=C/c1cc(O)c(O)c([N+](=O)[O-])c1", "nuclei count": "2.16 z-score and 2.27 z-score"}
{"Compound": "CN1CC(=O)N2[C@H](c3ccc4c(c3)OCO4)c3[nH]c4ccccc4c3C[C@@H]2C1=O", "nuclei count": "1.85 z-score and 2.23 z-score"}
{"Compound": "COc1cc(C)nc(-n2nc(C)cc2OC)n1", "nuclei count": "-1.07 z-score"}
{"Compound": "CNC[C@H](O)[C@@H](O)[C@H](O)[C@H](O)CO", "nuclei count": "2.13 z-score"}
{"Compound": "Nc1ncnc(Nc2ccc(OCc3ccccc3)c(Cl)c2)c1/C=N/OCCN1CCOCC1", "nuclei count": "-0.129 z-score"}
{"Compound": "Cc1cccc(C)c1NC(=O)CN1CCN(CCCC(c2ccc(F)cc2)c2ccc(F)cc2)CC1", "nuclei count": "-4.97 z-score"}
{"note": "Excerpt of the above (series 1):"}
{"target": "MET (Homo sapiens, UniProt P08581)", "remaining activity [%]": 95.1}
{"target": "KDR (Homo sapiens, UniProt P35968)", "remaining activity [%]": 99.1}
{"target": "DDR2 (Homo sapiens, UniProt Q16832)", "remaining activity [%]": 95.7}
{"target": "Cyclin-dependent kinase 9, with cyclin K (CDK9, Homo sapiens, UniProt P50750)", "remaining activity [%]": 101}
{"target": "NEK3 (Homo sapiens, UniProt P51956)", "remaining activity [%]": 93.7}
{"target": "MARK4 (Homo sapiens, UniProt Q96L34)", "remaining activity [%]": 105}
